Experimental data collected from several papers.
± marks the error that the study gave.
BCHE: Cholinesterase (BCHE, Equus caballus, UniProt P81908)
Sequence of UniProt P81908 (whole entry, looked up): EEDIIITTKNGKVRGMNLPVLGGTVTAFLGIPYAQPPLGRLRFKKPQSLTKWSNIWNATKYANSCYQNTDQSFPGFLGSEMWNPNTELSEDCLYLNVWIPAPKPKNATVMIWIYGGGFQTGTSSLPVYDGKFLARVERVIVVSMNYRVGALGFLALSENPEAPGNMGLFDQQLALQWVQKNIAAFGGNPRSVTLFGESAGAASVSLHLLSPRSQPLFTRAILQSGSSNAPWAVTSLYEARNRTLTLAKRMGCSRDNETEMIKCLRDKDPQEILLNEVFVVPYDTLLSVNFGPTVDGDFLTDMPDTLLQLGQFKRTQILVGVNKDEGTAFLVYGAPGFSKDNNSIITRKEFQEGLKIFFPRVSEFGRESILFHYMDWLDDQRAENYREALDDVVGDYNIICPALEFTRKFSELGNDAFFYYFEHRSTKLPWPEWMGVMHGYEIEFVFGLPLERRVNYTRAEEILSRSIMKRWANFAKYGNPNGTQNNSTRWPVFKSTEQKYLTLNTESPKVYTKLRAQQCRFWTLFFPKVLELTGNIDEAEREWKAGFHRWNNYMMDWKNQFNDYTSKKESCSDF
Sequence of UniProt P49146 (whole entry, looked up): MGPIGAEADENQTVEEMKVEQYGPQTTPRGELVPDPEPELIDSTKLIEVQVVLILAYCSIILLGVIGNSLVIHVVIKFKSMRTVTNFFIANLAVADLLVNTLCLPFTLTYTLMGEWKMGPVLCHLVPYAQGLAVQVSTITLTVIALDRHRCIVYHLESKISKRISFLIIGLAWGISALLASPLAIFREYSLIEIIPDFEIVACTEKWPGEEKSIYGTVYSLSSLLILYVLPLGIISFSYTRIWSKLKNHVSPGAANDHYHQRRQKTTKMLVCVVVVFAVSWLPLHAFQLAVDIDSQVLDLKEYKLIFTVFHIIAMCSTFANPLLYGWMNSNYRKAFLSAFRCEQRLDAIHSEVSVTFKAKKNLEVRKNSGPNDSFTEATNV
Sequence of UniProt Q8BHY3 (whole entry, looked up): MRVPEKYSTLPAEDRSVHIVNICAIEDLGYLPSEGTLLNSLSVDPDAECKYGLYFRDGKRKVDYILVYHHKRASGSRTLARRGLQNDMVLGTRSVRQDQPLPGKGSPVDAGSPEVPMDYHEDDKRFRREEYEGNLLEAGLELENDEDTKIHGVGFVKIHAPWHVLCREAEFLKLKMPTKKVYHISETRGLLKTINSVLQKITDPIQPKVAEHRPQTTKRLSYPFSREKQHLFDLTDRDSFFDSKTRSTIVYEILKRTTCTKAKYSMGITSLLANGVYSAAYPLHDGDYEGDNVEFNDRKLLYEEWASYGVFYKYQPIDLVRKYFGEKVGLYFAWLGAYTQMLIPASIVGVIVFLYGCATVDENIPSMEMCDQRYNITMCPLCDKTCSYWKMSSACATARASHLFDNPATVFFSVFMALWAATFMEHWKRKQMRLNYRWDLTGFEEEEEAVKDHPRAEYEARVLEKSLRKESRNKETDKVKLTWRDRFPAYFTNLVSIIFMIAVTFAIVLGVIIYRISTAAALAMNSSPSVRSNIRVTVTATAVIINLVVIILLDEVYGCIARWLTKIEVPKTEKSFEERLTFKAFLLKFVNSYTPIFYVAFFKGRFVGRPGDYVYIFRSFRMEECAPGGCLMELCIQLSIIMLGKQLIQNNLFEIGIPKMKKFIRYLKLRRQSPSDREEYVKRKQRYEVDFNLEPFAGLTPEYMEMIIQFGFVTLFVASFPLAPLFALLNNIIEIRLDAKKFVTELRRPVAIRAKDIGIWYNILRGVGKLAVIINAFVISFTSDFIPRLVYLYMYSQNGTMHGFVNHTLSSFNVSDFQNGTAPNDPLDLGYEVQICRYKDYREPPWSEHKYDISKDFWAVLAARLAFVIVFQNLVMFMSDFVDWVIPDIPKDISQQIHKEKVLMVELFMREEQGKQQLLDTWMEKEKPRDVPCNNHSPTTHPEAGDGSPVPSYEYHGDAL
Sequence of UniProt O43283 (whole entry, looked up): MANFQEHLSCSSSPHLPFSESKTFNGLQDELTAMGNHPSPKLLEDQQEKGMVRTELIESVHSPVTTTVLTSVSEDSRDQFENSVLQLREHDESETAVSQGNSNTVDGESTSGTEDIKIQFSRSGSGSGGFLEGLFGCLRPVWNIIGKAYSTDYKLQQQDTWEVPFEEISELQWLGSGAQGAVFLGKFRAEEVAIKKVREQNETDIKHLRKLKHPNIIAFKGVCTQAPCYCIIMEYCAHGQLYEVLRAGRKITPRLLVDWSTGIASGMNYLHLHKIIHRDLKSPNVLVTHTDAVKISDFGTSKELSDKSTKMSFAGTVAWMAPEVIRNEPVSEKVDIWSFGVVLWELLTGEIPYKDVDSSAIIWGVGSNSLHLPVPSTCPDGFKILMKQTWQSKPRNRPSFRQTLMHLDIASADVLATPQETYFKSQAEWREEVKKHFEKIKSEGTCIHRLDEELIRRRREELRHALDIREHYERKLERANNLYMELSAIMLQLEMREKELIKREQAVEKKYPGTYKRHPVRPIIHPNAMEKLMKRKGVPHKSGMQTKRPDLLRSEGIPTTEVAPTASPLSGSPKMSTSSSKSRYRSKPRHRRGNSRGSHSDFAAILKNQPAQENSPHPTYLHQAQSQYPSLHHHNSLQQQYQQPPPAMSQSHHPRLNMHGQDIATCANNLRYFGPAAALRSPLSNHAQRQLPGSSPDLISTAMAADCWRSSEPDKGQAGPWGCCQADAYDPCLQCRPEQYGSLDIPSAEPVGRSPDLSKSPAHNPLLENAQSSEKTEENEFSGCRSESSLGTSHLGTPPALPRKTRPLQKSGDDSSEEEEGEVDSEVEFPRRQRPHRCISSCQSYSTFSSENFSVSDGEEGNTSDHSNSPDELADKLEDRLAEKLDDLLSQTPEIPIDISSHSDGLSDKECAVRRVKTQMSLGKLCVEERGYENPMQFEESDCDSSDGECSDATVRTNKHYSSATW
Sequence of UniProt P25103 (whole entry, looked up): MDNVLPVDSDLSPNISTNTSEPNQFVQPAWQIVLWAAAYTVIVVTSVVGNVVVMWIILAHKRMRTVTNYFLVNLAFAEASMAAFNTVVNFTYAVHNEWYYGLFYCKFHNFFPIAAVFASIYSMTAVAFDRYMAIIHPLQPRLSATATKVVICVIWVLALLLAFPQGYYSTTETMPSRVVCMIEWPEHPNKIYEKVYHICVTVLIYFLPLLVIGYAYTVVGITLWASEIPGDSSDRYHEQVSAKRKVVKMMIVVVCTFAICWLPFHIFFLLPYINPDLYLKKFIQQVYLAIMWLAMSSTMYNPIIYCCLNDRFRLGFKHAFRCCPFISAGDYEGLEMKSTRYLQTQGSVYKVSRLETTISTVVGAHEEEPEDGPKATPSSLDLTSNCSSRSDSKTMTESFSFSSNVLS
Sequence of UniProt Q8TD19 (whole entry, looked up): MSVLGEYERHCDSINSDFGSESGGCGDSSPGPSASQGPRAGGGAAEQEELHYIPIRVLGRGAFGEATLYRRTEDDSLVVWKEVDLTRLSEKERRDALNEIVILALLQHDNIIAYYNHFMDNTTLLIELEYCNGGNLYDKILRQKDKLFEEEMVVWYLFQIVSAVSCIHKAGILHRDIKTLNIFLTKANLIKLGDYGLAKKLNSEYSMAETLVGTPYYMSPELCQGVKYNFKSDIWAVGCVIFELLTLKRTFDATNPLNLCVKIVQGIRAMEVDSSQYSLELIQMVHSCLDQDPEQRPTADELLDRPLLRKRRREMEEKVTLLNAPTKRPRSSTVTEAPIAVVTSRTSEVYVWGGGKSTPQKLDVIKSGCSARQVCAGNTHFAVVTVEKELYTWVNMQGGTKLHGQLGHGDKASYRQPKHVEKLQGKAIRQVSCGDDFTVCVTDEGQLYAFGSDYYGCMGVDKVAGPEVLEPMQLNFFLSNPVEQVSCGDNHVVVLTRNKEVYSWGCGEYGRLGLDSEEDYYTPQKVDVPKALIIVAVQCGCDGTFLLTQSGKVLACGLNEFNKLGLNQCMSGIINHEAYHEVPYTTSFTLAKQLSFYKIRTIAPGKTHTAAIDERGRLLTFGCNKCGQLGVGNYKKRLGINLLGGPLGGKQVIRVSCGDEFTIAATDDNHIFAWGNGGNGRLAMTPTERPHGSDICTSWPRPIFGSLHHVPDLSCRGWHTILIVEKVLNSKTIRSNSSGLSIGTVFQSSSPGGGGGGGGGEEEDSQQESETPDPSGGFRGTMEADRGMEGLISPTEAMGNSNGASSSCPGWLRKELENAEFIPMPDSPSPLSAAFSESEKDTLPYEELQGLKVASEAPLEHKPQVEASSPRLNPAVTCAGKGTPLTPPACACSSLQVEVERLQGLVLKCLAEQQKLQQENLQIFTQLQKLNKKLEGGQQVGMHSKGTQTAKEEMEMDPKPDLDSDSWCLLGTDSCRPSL
Sequence of UniProt P18089 (whole entry, looked up): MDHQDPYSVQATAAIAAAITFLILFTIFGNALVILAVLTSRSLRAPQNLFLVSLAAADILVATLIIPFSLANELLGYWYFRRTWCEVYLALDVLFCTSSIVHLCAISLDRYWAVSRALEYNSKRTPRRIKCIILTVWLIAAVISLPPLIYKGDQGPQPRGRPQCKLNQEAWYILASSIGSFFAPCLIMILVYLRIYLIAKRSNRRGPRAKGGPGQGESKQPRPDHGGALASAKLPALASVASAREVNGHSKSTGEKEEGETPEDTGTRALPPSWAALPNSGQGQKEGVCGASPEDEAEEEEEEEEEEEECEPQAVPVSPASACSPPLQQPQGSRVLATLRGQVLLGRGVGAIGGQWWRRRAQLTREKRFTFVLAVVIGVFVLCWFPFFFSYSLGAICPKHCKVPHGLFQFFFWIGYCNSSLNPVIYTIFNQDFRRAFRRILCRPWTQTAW

CN[C@@H]1[C@H](O)[C@H](NC)[C@H]2O[C@]3(O)[C@H](O[C@@H]2[C@H]1O)O[C@H](C)C[C@H]3NC(=O)Cc1ccc(Cl)cn1
inhibition (Neuropeptide Y receptor type 2 (NPY2R, Homo sapiens, UniProt P49146); ligand displacement, radioligand; 10 µM): -2%

O=C(O)c1ccccc1/C=N/Nc1nc(-c2ccccc2Cl)cs1
inhibition (Serine/threonine-protein kinase Nek9 (NEK9, Homo sapiens, UniProt Q8TD19); enzyme activity, inhibitor; 1 µM): -7.59%

CC(C)[C@H]1NC(=O)C[C@H]2/C=C/CCSSC[C@@H](NC1=O)C(=O)N[C@H](Cc1cccc3ccccc13)C(=O)NCC(=O)O2
inhibition (Calcium/calmodulin-dependent protein kinase type 1 (CAMK1, Homo sapiens, UniProt Q14012); enzyme activity, inhibitor; 10 µM): 6.3%

COc1ccc(F)cc1S(=O)(=O)Nc1cnc2c(c1)C(=O)NCCO2
inhibition (Alpha-2B adrenergic receptor (ADRA2B, Homo sapiens, UniProt P18089); ligand displacement, radioligand; 10 µM): 6%

O=C(CN1CN(c2ccccc2)C2(CCN(C(=O)c3cnc4[nH]ncc4c3)CC2)C1=O)NCC(F)(F)F
inhibition (Mitogen-activated protein kinase kinase kinase 13 (MAP3K13, Homo sapiens, UniProt O43283); inhibitor; concentration not given): < 50%

Cn1c(=O)[nH]c2nncnc2c1=O
inhibition (Ubiquitin carboxyl-terminal hydrolase 5 (USP5, Homo sapiens, UniProt P45974); enzyme activity, inhibitor; 17 µM): 96%

CN(C)[C@H]1C[C@@]23CC[C@@]4(O2)C(=CC[C@]2(C)[C@@H](c5ccc6ccncc6c5)CC[C@H]24)C=C3[C@@H](O)[C@@H]1O
inhibition (Inositol-tetrakisphosphate 1-kinase (Homo sapiens, UniProt Q13572); ATP probe labelling, inhibitor, KiNativ profiling; 1 µM): 12%

O=S(=O)(F)CCc1cn(-c2ccc(OC(F)(F)F)cc2)nn1
inhibition (BCHE; Ellman; horse; 20 µM): 45.1 ± 1.8%

CCCCC1(C2CCCC2)Cc2cc(OCCCC(=O)O)c(Cl)c(Cl)c2C1=O (centres unmarked)
inhibition (Anoctamin-1 (Ano1, Mus musculus, UniProt Q8BHY3); ion current, inhibitor; HEK293 transfected; 10 µM, at +80 mV): 52.9 ± 2.3%

CCN(CC)CCOc1ccc(-c2nnn(Cc3ccc(OC)cc3)c2N)cc1
inhibition (L-type calcium channel (rat); radioligand binding; cerebral cortex; 10 µM, added: 10000 nM radioligand): -6.34%

Cc1cc(Nc2nc(C[C@@]3(C(=O)O)CCN(Cc4cccc(Cl)c4F)[C@H](C)C3)cc(C)c2F)[nH]n1
inhibition (5-hydroxytryptamine receptor 2A (HTR2A, Homo sapiens, UniProt P28223); inhibitor; 10 µM): -4.04%

C[C@H](NCc1ccc(-c2ccc(C(F)(F)F)cc2)cc1)C(N)=O
inhibition (Substance-P receptor (TACR1, Homo sapiens, UniProt P25103); binding, radioligand binding; biochemical; 1 µM, added: [3H]substance P 0.80 nM): -11%

NCCc1c[nH]c2ccc(Cl)cc12
inhibition (BCHE; enzyme activity, inhibitor, Ellman; 20 µM): 36.9%

CS(C)(=O)=Nc1ccc(-c2ccc(-c3nc4cc(O[C@@H]5CO[C@H]6[C@@H]5OC[C@H]6O)[nH]c4cc3F)cc2)cc1
inhibition (GABA-gated chloride channel; binding; 10 µM): 30%

NCc1ccncc1
inhibition (BCHE; enzyme activity, inhibitor, Ellman; 20 µM): 39.1%

CN(/N=C/c1ccccc1C(=O)O)c1nc(-c2ccccc2Cl)cs1
inhibition (BDNF/NT-3 growth factors receptor (NTRK2, Homo sapiens, UniProt Q16620); enzyme activity, inhibitor; 1 µM): -16%

N[C@H](C(=O)N1CCCC1)C1CCN(c2nccc3c(-c4ncc(Cl)cc4Cl)cccc23)CC1
inhibition (Mitogen-activated protein kinase 1 (MAPK1, Homo sapiens, UniProt P28482); kinase activity, inhibitor; 10 µM, added: ATP 1 mM): 7.4%

For quick reference, copied from above:
O=S(=O)(F)CCc1cn(-c2ccc(OC(F)(F)F)cc2)nn1
inhibition (BCHE; Ellman; horse; 20 µM): 45.1 ± 1.8%
